Measured values collected from several papers.
Lines come from different studies, so protocols differ. Several values in a cell are separate wells, animals, samples, runs or records.
Cell line: HEK293

Structure (SMILES) | test | setting | measurement | value
CN1C(=O)[C@@H]2NC(=O)[C@@H]3NC(=O)[C@@H](c4ccc(O)cc4)NC(=O)[C@H](NC(=O)C(NCc4cccc(O)c4)c4ccc(O)cc4)Cc4c[nH]c5cc(ccc45)-c4cc3cc(c4O)Oc3ccc(cc3)C[C@H]1C(=O)N[C@@H](C(=O)O)c1ccc(O)c(c1)Oc1ccc2cc1 (stereo partly shown) | cell viability, CellTiter-Glo | 48 h, 1% DMSO | IC50 | unstable
Cc1ccc(-n2cc(CSc3nc4ccccc4n3Cc3cn(-c4ccc(C)cc4)nn3)nn2)cc1 | MTT | 500 ppm | cytotoxicity | 93%
O=C(O)C(CO)NCc1cc(Cl)c(OCc2cccc(-c3ccccc3)c2Br)cc1OCc1cccnc1 (stereo not shown) | MTT |  | IC50 | > 10 µM
CC(=O)[C@@H]1CCCN1C(=O)[C@@H]1CCCN1C(=O)[C@H](Cc1ccccc1)NC(=O)OC(C)(C)C | cell growth or viability, SRB |  | IC50 | 166 µM and 354 µM and 300 µM
CCCC[N+]1=c2cc3c4cc2[O][Mn-2]1(=[C]=O)(=[C]=O)(=[C]=O)[n+]1ccc(cc1)C(=O)OCCOC(=O)c1cc[n+](cc1)[Mn-2](=[C]=O)(=[C]=O)(=[C]=O)([O]3)[N+]=4CCCC | MTT | 50 µM, 48 h, photolysed compound | viability reduction | ~34%
CCCCN1C(=O)c2cccc3c(NCCCCCCCCCCN4CCOCC4)ccc(c23)C1=O | confocal lambda scanning |  | emission maximum in ER | 536 nm
CC(=O)OC[C@H]1O[C@@H](n2cc(CSc3nc4ccccc4n3Cc3cn([C@@H]4O[C@H](COC(C)=O)[C@@H](OC(C)=O)C(OC(C)=O)[C@H]4OC(C)=O)nn3)nn2)[C@H](OC(C)=O)C(OC(C)=O)[C@@H]1OC(C)=O (stereo in doubt) | MTT | 3.91 ppm | cytotoxicity | 0.232%
O=[C]=[Mn-2]12(=[C]=O)(=[C]=O)[O]c3cc4c(cc3=[N+]1CCc1ccccc1)[O][Mn-2](=[C]=O)(=[C]=O)(=[C]=O)([N+]=4CCc1ccccc1)[n+]1ccc(cc1)C(=O)OCCOC(=O)c1cc[n+]2cc1 | MTT | 50 µM, 48 h, photolysed compound | viability reduction | 35%
c1ccc2c(-c3cn(-c4ccncc4)nn3)c3ccccc3c(-c3cn(-c4ccncc4)nn3)c2c1 | cell growth or viability, MTT | 24 h | IC50 | > 40 µM
CCCC[N+]1=c2cc3c4cc2[O][Mn-2]1(=[C]=O)(=[C]=O)(=[C]=O)[n+]1ccc(cc1)C(=O)OCCOCCOC(=O)c1cc[n+](cc1)[Mn-2](=[C]=O)(=[C]=O)(=[C]=O)([O]3)[N+]=4CCCC | MTT | 50 µM, 48 h, photolysed compound | viability reduction | 48%
CC(C)C[C@H](NC(=O)[C@H](Cc1ccc(O)cc1)NC(=O)[C@@H]1CCCN1C(=O)[C@H](CCCNC(=N)N)NC(=O)[C@@H]1CCCN1C(=O)[C@H](CCCCN)NC(=O)[C@H](CC(=O)O)NC(=O)[C@@H]1CCCN1C(=O)[C@H](CCCNC(=N)N)NC(=O)C1(N)CCCCC1)C(=O)N1CCC[C@H]1C(=O)N[C@@H](CCCNC(=N)N)C(=O)N1CCC[C@H]1C(=O)N[C@@H](CCCNC(=N)N)C(=O)N1CCC[C@H]1C(=O)N1CCC[C@H]1C(=O)N[C@@H](CCCNC(=N)N)C(=O)N1CCC[C@H]1C(=O)N[C@H](C(=O)N[C@@H](CCCNC(=N)N)C(=O)N[C@@H](CSCc1ccccc1CSC[C@H](NC(=O)[C@H](CCCNC(=N)N)NC(=O)[C@@H](NC(=O)[C@@H]1CCCN1C(=O)[C@H](CCCNC(=N)N)NC(=O)[C@@H]1CCCN1C(=O)[C@@H]1CCCN1C(=O)[C@H](CCCNC(=N)N)NC(=O)[C@@H]1CCCN1C(=O)[C@H](CCCNC(=N)N)NC(=O)[C@@H]1CCCN1C(=O)[C@H](CC(C)C)NC(=O)[C@H](Cc1ccc(O)cc1)NC(=O)[C@@H]1CCCN1C(=O)[C@H](CCCNC(=N)N)NC(=O)[C@@H]1CCCN1C(=O)[C@H](CCCCN)NC(=O)[C@H](CC(=O)O)NC(=O)[C@@H]1CCCN1C(=O)[C@H](CCCNC(=N)N)NC(=O)C1(N)CCCCC1)C(C)C)C(=O)NN)C(=O)NN)C(C)C | cytotoxicity | highest tested 125 µg/mL | IC50 | > 125 µg/mL
O=[C]=[Mn-2]12(=[C]=O)(=[C]=O)[O]c3cc4c(cc3=[N+]1CCc1ccccc1)[O][Mn-2](=[C]=O)(=[C]=O)(=[C]=O)([N+]=4CCc1ccccc1)[n+]1ccc(cc1)C(=O)Oc1ccccc1OC(=O)c1cc[n+]2cc1 | cell growth, MTT | 48 h, LED photolysed 1 h | IC50 | > 50 µM
CC(C)C[C@H](NC(=O)[C@H](Cc1ccc(O)cc1)NC(=O)[C@@H]1CCCN1C(=O)[C@H](CCCNC(=N)N)NC(=O)[C@@H]1CCCN1C(=O)[C@H](CCCCN)NC(=O)[C@H](CC(=O)O)NC(=O)[C@@H]1CCCN1C(=O)[C@H](CCCNC(=N)N)NC(=O)C1(N)CCCCC1)C(=O)N1CCC[C@H]1C(=O)N[C@@H](CCCNC(=N)N)C(=O)N1CCC[C@H]1C(=O)N[C@@H](CCCNC(=N)N)C(=O)N1CCC[C@H]1C(=O)N1CCC[C@H]1C(=O)N[C@@H](CCCNC(=N)N)C(=O)N1CCC[C@H]1C(=O)N[C@H](C(=O)N[C@@H](CCCNC(=N)N)C(=O)N[C@@H](CSCc1cccc(CSC[C@H](NC(=O)[C@H](CCCNC(=N)N)NC(=O)[C@@H](NC(=O)[C@@H]2CCCN2C(=O)[C@H](CCCNC(=N)N)NC(=O)[C@@H]2CCCN2C(=O)[C@@H]2CCCN2C(=O)[C@H](CCCNC(=N)N)NC(=O)[C@@H]2CCCN2C(=O)[C@H](CCCNC(=N)N)NC(=O)[C@@H]2CCCN2C(=O)[C@H](CC(C)C)NC(=O)[C@H](Cc2ccc(O)cc2)NC(=O)[C@@H]2CCCN2C(=O)[C@H](CCCNC(=N)N)NC(=O)[C@@H]2CCCN2C(=O)[C@H](CCCCN)NC(=O)[C@H](CC(=O)O)NC(=O)[C@@H]2CCCN2C(=O)[C@H](CCCNC(=N)N)NC(=O)C2(N)CCCCC2)C(C)C)C(=O)NN)c1)C(=O)NN)C(C)C | cytotoxicity | highest tested 125 µg/mL | IC50 | > 125 µg/mL
